Measurements collected from several papers.
Lines come from different studies, so protocols differ. ± gives the spread as reported.
dncV: dncV (Vibrio cholerae, UniProt Q9KVG7)

Structure (SMILES) | target | assay | system | setting | scale | measurement | value
Nc1nc2c([C@@H]3O[C@@H]4COP(=O)(O)O[C@H]5[C@@H](O)[C@H](c6snc7c(=O)[nH]c(N)nc67)O[C@@H]5COP(=O)(O)O[C@H]4[C@H]3O)snc2c(=O)[nH]1 | dncV | substrate, HPLC |  | 500 µM, 37 °C |  | cyclization rate constant k2 | 0.0034 ± 0.0002 s⁻¹
COc1ccc2cc(C(CC(=O)O)CC(=O)O)ccc2c1 | Nucleoprotein (Influenza A virus, UniProt P15682) |  |  | NP–RNA complex |  | particle size | 15 to 17 nm
CCCCCn1cc(C(=O)c2cccc3c2CC(C)(C)C3)c2ccccc21 | Cannabinoid receptor 1 (CNR1, Homo sapiens, UniProt P21554, I267L) | Gαi1 engagement, agonist, BRET |  |  | relative to: wild type | Emax decrease | ~50%
COc1ccc2cc(-c3c(C(=O)O)cccc3C(=O)O)ccc2c1 | Nucleoprotein, monomeric (Influenza A virus, UniProt P15682) |  |  | 1 µM |  | inhibition | 29%
CC(=O)N[C@@H](CCC(=O)O)C(=O)N[C@@H](CCC(N)=O)C(=O)N[C@H](C(=O)N[C@@H](CCC(=O)O)C(=O)N[C@@H](CC(C)C)C(=O)N[C@@H](CCC(=O)O)C(=O)N[C@@H](Cc1ccccc1)C(=O)N[C@@H](CC(=O)O)C(=O)O)C(C)C | Beta sliding clamp (Escherichia coli, UniProt P0A988) | urea HDX-MS |  | concentration not given, 25 °C, added: urea 4 M |  | unfolding rate | 11.6 %/h
NCCCCCCCCN1CCC23c4c5ccc(O)c4OC2c2nc4ccccc4cc2CC3(O)C1C5 (stereo not shown) | Delta-type opioid receptor, with Gi1 (OPRD1, Homo sapiens, UniProt P41143) |  | human cells |  |  | Emax | 60 ± 2%
CCCCCn1cc(C(=O)c2ccc3c(c2)CC(C)(C)C3)c2ccccc21 | Cannabinoid receptor 2 (CNR2, Homo sapiens, UniProt P34972, L182I) | Gαi1 engagement, agonist, BRET |  |  | relative to: reference agonist at wild-type CB2 | Emax | 26.3 ± 3.6%
Nc1nc2c([C@@H]3O[C@@H]4COP(=O)(O)O[C@H]5[C@@H](O)[C@H](c6scc7c(=O)[nH]c(N)nc67)O[C@@H]5COP(=O)(O)O[C@H]4[C@H]3O)scc2c(=O)[nH]1 | dncV | first phosphodiester formation, substrate, HPLC |  | 500 µM, 37 °C |  | rate constant k1 | 0.308 ± 0.003 M⁻¹ s⁻¹
CCCCCn1cc(C(=O)c2cccc3ccccc23)c2ccccc21 | Cannabinoid receptor 1 (CNR1, Homo sapiens, UniProt P21554, L193I) | Gαi1 engagement, agonist, BRET |  |  | relative to: wild type receptor | Emax reduction | ~50%
CCCCCCCCN1CCC23c4c5ccc(O)c4OC2c2nc4ccccc4cc2CC3(O)C1C5 (stereo not shown) | Delta-type opioid receptor, with β-arrestin1 (OPRD1, Homo sapiens, UniProt P41143) |  | human cells |  |  | Emax | 23%

A few entries again:
Structure (SMILES) | target | assay | system | setting | scale | measurement | value
COc1ccc2cc(-c3c(C(=O)O)cccc3C(=O)O)ccc2c1 | Nucleoprotein, monomeric (Influenza A virus, UniProt P15682) |  |  | 1 µM |  | inhibition | 29%
